# Measured values pooled from the literature.
# Each numbered part is a random draw from the data of one study; scales do not carry over between parts. Changes are numbered by the printed parent chain.
# Chain of UniProt Q9HBH9 (whole entry, looked up): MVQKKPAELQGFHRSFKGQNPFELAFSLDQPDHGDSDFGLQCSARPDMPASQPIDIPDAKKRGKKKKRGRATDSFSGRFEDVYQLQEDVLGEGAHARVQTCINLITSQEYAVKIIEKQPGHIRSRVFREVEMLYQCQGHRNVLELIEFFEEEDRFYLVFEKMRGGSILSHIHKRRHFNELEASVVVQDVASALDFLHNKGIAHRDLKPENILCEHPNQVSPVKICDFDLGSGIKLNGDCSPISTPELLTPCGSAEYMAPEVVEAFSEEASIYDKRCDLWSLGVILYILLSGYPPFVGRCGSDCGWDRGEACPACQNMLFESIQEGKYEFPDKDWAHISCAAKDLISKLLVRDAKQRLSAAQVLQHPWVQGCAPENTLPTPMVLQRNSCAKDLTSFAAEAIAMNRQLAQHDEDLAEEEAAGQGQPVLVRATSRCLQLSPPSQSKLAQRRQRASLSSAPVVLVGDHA
# Chain of UniProt Q86UX6 (whole entry, looked up): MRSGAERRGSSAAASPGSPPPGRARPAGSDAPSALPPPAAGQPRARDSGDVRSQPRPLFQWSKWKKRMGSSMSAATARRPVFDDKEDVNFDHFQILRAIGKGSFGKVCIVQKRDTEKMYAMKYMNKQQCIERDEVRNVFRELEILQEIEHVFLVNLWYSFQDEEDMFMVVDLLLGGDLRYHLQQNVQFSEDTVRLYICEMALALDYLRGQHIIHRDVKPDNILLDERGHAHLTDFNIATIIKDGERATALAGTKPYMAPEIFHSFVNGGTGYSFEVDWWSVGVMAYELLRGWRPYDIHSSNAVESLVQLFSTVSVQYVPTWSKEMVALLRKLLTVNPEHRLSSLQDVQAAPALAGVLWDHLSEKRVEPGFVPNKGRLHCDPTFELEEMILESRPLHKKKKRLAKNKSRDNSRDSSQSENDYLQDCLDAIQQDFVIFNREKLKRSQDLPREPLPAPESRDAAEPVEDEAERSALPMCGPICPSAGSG
# Chain of UniProt Q13233 (whole entry, looked up): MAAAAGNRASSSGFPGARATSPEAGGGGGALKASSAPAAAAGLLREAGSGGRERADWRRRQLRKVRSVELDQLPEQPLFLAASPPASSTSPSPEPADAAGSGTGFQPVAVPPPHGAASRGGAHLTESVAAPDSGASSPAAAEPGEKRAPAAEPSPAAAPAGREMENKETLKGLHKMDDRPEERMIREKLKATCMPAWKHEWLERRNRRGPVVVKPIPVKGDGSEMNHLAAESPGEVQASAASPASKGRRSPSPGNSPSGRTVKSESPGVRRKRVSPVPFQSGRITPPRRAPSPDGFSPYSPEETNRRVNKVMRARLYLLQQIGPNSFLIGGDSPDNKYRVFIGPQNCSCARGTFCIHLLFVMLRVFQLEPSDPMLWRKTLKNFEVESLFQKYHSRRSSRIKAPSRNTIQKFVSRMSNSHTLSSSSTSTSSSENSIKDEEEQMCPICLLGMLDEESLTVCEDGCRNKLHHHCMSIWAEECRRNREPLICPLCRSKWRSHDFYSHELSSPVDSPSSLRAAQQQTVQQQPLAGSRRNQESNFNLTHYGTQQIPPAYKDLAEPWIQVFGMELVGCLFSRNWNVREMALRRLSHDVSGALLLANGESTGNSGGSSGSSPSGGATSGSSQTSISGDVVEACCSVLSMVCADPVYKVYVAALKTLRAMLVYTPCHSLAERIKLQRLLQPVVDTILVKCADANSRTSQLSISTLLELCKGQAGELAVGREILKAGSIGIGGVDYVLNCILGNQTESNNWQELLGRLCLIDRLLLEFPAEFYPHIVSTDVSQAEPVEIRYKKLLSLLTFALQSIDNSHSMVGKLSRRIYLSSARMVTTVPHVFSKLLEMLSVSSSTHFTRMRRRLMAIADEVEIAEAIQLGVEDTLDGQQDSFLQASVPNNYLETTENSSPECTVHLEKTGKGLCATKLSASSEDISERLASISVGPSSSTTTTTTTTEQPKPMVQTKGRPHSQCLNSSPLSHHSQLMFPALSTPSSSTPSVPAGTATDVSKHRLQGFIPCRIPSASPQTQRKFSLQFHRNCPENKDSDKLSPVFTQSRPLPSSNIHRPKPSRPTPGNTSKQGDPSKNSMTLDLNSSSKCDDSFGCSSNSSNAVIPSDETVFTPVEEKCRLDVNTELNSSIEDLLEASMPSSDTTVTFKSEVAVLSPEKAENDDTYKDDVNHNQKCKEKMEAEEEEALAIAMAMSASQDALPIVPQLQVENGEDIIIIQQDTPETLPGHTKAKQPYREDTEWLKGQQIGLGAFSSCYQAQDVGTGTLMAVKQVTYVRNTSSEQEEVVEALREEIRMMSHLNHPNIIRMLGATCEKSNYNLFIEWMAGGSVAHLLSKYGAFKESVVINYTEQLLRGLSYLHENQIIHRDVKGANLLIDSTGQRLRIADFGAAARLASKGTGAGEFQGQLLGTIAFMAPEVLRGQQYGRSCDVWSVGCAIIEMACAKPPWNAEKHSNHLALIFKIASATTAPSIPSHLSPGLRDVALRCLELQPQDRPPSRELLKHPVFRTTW

# Block 1
# Target: CREB3L2, bZIP domain (human)
# Method: DHFR protein complementation
# Matrix: yeast
# Notes: single substitutions, most at no-binding floor
# Reference: wild-type JUN-FOS pair
# Direction: higher = stronger binding
# Starting sequence: JUN, bZIP domain (human); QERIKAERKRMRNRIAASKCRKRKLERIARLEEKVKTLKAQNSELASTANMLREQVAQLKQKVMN; partner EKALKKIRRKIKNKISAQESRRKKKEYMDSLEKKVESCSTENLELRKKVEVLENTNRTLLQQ
Variant,binding fitness [natural log]
Q41W,-1.63
L45M,-1.53
N42E,-1.44
Q41D,-1.53
K36V,-1.53
S47I,-1.53
L45V,-1.43
R53Q,-1.18

# Block 2
# Target: Fragile X messenger ribonucleoprotein 1, C-terminal low-complexity region (Fmr1, Mus musculus, UniProt P35922)
# Method: RNA Bind-n-Seq
# Molecule type: RNA
# Matrix: in vitro
# Tested at: 200 nM
# Notes: whole 134-nt RNA, ends assumed
# With: 150 mM LiCl
# Reference: input library
# Direction: higher = stronger binding
# All molecules: 7-deaza-guanosine replaces G
Sequence,log2 enrichment
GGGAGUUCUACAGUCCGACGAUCAAGUCCUGUGCUACACAUCGUAUGUACCGAAUCGGGUUUGGGGUUUGGGGUUUGGGAAAGUAUUAUGUUACGCCGUUCGGAUCUGCACUUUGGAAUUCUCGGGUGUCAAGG,-1.82
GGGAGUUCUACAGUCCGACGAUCUCAAGUCCUGUGCUACACAUCGUAUGUACCGAAUCGGGCCGGGGCCGGGGCCGGGAAAGUAUUAUGUUACGCCGUUCGGAUCUGCACUUCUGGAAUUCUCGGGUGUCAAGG,-0.063
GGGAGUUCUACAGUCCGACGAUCUGUGCUACACAUCGUAUGUACCGAAUCGGGGAAAAAAAGGGAAAAAAAGGGAAAAAAAGGGGAAAGUAUUAUGUUACGCCGUUCGGAUCUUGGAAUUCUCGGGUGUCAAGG,0.491
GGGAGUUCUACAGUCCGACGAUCCAAGUCCUGUGCUACACAUCGUAUGUACCGAAUCGGAAAAGGGAAAAGGGAAAAGGAAAGUAUUAUGUUACGCCGUUCGGAUCUGCACUUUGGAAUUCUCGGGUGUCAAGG,-1.16
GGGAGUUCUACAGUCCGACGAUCCCUGUGCUACACAUCGUAUGUACCGAAUCGGGUUUUUUUGGUUUUUUUGGGGUUUUUUUGGAAAGUAUUAUGUUACGCCGUUCGGAUCUGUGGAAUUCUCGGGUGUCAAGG,0.178
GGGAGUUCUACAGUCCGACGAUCAAGUCCUGUGCUACACAUCGUAUGUACCGAAUCGGAAAAGGGGAAAAGGGAAAAGGAAAGUAUUAUGUUACGCCGUUCGGAUCUGCACUUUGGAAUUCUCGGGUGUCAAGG,-0.509
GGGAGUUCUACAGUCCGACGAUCUAUCCCCUAUGAGGCACCACGUAAGACCUCCUGCCCUUAGCUCUCUUGCUCACCACCCAAGAACCUCAGGACAGAAGCGAGAGCCCAUUGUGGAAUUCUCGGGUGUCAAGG,2.1
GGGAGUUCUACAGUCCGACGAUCUGGGAGGUGCAUUUUGUUUAUUUUUUUAGCUCAUUUCCAGGGGUGGGAAUUUUUUUUUAAUAUGUGUCAUGAAUAAAGUUGUUUUUGAAAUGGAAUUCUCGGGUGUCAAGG,0.256

# Block 3
# Compound: Cc1c(NC(=O)c2cc(C(N)=O)nc3cc(F)ccc23)c(C(F)(F)F)nn1Cc1ccc(C(C)(C)C)cc1
# Observed: cell-free assay
# Method: competition with immobilised ligand
# Tested at: 1 µM
target,remaining binding
"STK32C (Homo sapiens, UniProt Q86UX6)",100%
"MKNK2 (Homo sapiens, UniProt Q9HBH9)",100%
"EGFR (Homo sapiens, UniProt P00533, T790M)",100%
"MAP3K1 (Homo sapiens, UniProt Q13233)",100%

# Block 4
# Target: Myotonin-protein kinase (DMPK, Homo sapiens, UniProt Q09013)
# Chain of UniProt Q09013 (whole entry, looked up): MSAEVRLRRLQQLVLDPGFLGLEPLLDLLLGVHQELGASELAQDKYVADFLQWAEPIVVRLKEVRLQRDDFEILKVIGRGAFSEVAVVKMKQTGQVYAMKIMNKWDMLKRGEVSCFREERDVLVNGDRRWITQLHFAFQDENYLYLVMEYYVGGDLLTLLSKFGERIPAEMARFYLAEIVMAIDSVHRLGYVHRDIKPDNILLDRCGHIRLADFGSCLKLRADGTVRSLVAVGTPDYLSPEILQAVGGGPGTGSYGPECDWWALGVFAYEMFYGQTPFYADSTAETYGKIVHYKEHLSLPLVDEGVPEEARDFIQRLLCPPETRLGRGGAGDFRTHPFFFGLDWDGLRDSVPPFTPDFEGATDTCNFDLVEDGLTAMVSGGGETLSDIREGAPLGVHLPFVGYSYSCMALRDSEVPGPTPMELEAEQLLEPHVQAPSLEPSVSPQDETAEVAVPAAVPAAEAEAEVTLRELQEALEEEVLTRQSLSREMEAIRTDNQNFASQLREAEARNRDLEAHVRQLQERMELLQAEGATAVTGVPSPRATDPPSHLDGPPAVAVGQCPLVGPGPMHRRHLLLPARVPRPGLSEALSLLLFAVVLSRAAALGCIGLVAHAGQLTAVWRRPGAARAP
# Observed: enzyme activity
# Action: inhibitor
# Tested at: 0.5 µM
# Reference: control
Compound,remaining activity [%]
O=C1Nc2ccc(Br)cc2/C1=C/c1cc2c([nH]1)CCCC2,101
O=Nc1c(-c2c(O)[nH]c3ccccc23)[nH]c2ccccc12,101
C[C@@H](N)[C@H]1CC[C@H](C(=O)Nc2ccncc2)CC1,99
O=C1NC(=O)/C(=C/c2ccc3c(c2)OC(F)(F)O3)S1,97.5
Cc1ccc(S(=O)(=O)/C=C/C#N)cc1,89
CCCNC(=O)Nc1ccc(Oc2ncnc3cc(OC)c(OC)cc23)cc1Cl,100
Clc1ccc(Nc2nnc(Cc3ccncc3)c3ccccc23)cc1,102
CC(C)n1cnc2c(Nc3cccc(Cl)c3)nc(NCCO)nc21,98.5
Oc1cccc(-c2nc(N3CCOCC3)c3oc4ncccc4c3n2)c1,99.5
Nc1nc(Nc2ccc(S(N)(=O)=O)cc2)nn1C(=S)Nc1c(F)cccc1F,78.4
COc1ccc2c(c1)c(C1=C(c3c[nH]c4ccccc34)C(=O)NC1=O)cn2CCCN(C)C,97.7
COc1ccc(COc2ccc(Cc3cnc(N)nc3N)cc2OC)cc1,101
N#C/C(=C(/N)SC1C=CC=CC1)c1cccc(C(O)c2ccncc2)c1 (stereo not shown),126
FC(F)(F)c1ccc(/C=C/c2nc(COc3ccc(CCCCn4ccnn4)cc3)co2)cc1,101
COc1cc2c(N3CCN(C(=O)Nc4ccc(OC(C)C)cc4)CC3)ncnc2cc1OCCCN1CCCCC1,101
O=C1NC(=O)c2c1c1c3ccccc3[nH]c1c1[nH]c3cc(Br)ccc3c21,104
CN1CCN(c2ccc3nc(-c4c(N)c5c(F)cccc5[nH]c4=O)[nH]c3c2)CC1,107

# For quick reference, copied from above (block 4):
Compound,remaining activity [%]
O=C1Nc2ccc(Br)cc2/C1=C/c1cc2c([nH]1)CCCC2,101
O=Nc1c(-c2c(O)[nH]c3ccccc23)[nH]c2ccccc12,101
C[C@@H](N)[C@H]1CC[C@H](C(=O)Nc2ccncc2)CC1,99
O=C1NC(=O)/C(=C/c2ccc3c(c2)OC(F)(F)O3)S1,97.5
Cc1ccc(S(=O)(=O)/C=C/C#N)cc1,89
